Measurements collected from several papers.
A part holds a random share of what one study measured. “And” joins repeats or separate records; there may be more than shown. Positions count from the first letter of the parent shown.
UniProt Q92772, sequence (whole entry, looked up): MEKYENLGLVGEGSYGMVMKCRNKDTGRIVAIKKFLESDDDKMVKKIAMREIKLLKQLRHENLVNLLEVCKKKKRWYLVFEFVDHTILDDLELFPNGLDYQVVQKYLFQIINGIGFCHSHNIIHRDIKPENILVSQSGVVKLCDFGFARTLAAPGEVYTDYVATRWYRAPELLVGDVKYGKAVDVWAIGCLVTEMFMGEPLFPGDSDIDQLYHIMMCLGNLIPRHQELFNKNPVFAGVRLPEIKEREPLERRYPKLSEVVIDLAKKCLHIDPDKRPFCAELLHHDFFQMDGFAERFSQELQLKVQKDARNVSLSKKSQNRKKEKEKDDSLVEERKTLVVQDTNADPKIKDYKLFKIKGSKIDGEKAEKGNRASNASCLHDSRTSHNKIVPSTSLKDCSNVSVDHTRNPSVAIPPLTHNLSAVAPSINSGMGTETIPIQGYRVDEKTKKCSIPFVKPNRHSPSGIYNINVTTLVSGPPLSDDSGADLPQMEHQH
UniProt Q15569, sequence (whole entry, looked up): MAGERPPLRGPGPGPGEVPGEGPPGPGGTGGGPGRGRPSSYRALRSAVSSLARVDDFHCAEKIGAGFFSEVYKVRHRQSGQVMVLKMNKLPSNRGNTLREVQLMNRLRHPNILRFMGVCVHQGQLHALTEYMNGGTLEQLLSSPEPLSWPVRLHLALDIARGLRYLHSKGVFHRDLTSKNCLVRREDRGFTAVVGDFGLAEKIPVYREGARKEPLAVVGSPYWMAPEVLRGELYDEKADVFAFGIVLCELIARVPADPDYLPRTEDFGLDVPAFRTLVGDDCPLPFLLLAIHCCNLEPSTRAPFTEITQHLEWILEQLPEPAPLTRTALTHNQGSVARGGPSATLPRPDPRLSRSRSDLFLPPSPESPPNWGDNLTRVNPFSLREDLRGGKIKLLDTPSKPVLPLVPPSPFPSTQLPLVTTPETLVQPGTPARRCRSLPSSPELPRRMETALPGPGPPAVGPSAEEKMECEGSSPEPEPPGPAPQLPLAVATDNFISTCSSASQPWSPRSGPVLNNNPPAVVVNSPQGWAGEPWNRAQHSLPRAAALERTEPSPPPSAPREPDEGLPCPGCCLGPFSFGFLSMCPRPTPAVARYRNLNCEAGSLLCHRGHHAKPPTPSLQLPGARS
UniProt Q9BRS2, sequence (whole entry, looked up): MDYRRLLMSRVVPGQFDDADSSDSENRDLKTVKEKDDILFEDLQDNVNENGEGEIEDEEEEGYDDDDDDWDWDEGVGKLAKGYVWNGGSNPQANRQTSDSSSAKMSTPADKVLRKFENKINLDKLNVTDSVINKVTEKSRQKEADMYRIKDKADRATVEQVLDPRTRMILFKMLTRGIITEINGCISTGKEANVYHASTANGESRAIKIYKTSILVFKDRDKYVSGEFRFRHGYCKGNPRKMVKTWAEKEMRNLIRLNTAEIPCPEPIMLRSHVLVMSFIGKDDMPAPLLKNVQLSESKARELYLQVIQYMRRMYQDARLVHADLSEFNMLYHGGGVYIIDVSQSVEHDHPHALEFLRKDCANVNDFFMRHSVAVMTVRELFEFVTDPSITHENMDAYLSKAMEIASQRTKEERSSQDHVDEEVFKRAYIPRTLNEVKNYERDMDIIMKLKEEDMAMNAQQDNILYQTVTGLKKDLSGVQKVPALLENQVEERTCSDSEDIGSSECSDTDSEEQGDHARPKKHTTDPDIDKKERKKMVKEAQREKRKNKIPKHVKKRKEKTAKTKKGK
UniProt Q02156, sequence (whole entry, looked up): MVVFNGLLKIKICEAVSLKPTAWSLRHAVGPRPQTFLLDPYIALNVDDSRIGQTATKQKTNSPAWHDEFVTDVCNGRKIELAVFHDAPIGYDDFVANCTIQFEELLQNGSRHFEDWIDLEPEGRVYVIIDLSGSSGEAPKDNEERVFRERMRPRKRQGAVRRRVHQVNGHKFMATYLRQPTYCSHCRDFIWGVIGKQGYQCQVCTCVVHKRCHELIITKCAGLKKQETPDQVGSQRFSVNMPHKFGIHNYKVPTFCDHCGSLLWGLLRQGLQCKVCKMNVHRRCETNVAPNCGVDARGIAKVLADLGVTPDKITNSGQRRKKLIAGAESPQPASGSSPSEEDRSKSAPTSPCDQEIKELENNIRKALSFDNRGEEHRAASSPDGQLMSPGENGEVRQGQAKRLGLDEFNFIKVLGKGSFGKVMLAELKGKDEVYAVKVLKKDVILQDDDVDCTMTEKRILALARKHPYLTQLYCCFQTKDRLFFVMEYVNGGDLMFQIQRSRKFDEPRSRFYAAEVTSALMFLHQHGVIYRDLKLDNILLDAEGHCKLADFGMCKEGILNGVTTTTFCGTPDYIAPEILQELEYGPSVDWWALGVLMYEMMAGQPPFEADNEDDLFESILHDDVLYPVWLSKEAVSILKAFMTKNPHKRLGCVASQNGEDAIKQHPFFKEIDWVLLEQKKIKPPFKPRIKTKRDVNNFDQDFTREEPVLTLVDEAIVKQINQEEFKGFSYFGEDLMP
UniProt P42685, sequence (whole entry, looked up): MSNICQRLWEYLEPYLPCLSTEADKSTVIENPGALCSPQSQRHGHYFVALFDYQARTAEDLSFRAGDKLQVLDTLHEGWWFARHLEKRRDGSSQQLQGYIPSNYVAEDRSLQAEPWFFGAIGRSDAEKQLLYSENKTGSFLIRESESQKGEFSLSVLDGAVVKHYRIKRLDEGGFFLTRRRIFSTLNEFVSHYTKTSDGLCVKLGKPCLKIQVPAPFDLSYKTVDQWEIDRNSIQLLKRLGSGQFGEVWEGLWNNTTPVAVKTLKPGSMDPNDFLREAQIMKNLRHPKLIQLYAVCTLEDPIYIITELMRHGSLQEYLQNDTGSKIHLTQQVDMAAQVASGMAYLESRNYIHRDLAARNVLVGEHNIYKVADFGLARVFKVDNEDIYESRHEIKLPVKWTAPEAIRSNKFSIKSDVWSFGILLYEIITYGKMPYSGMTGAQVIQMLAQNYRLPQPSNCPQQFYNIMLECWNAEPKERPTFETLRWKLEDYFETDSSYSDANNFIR
UniProt P10721, sequence (whole entry, looked up): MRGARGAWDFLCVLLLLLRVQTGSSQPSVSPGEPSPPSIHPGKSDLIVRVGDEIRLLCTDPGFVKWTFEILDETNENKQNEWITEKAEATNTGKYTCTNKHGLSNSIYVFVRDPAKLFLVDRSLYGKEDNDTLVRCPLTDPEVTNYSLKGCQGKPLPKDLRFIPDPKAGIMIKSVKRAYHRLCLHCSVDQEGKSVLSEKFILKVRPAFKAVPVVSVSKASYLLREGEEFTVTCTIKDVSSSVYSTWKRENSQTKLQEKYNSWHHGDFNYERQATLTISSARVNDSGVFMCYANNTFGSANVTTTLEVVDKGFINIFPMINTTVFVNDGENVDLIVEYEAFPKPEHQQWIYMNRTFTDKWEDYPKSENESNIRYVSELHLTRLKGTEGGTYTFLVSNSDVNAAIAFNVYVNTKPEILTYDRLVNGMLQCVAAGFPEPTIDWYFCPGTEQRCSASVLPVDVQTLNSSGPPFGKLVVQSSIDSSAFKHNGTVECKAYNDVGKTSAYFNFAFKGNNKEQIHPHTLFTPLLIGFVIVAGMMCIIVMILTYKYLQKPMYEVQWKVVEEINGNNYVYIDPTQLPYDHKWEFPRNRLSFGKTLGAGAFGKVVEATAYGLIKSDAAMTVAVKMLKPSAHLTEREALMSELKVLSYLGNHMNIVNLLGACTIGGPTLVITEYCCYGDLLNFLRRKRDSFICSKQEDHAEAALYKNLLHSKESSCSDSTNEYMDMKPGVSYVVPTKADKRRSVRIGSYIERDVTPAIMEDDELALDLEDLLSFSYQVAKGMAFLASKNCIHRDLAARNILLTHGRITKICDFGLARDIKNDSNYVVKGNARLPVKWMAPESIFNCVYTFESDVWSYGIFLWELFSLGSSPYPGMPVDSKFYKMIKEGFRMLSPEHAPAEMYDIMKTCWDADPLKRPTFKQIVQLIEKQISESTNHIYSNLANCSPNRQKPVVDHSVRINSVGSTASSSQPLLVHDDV
UniProt Q8NE63, sequence (whole entry, looked up): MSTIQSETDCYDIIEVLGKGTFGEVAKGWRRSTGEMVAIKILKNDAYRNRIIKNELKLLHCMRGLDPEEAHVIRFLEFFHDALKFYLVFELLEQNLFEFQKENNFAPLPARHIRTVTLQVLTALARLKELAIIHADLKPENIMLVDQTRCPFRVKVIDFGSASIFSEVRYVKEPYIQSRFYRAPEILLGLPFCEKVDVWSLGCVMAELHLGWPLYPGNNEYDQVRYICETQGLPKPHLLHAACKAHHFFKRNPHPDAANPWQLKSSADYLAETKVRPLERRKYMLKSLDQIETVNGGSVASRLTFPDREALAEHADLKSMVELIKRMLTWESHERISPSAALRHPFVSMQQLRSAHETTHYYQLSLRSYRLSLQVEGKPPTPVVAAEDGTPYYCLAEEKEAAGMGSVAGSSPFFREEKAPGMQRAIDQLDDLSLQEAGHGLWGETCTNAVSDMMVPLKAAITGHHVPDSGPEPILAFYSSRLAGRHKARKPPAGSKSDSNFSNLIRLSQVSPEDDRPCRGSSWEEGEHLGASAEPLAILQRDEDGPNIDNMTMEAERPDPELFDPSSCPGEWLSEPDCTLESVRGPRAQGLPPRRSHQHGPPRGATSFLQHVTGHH

Study 1
SMILES: CC(=O)N1CCC(c2ccc(C(=O)NC(=N)N)cc2C(F)(F)F)CC1
Read-out: cell-free assay
Method: competition with immobilised ligand
Concentration: 1 µM
target	remaining binding [%]
Tyrosine-protein kinase ABL1, phosphorylated (ABL1, Homo sapiens, UniProt P00519, H396P)	86
Dual specificity testis-specific protein kinase 1 (TESK1, Homo sapiens, UniProt Q15569)	95
Serine/threonine-protein kinase MARK1 (MARK1, Homo sapiens, UniProt Q9P0L2)	100
Serine/threonine-protein kinase 17A (STK17A, Homo sapiens, UniProt Q9UEE5)	100
Tyrosine-protein kinase FRK (FRK, Homo sapiens, UniProt P42685)	100
Cyclin-dependent kinase-like 2 (CDKL2, Homo sapiens, UniProt Q92772)	100
Homeodomain-interacting protein kinase 4 (HIPK4, Homo sapiens, UniProt Q8NE63)	100
Serine/threonine-protein kinase RIO1 (RIOK1, Homo sapiens, UniProt Q9BRS2)	100
Mitogen-activated protein kinase 1 (MAPK1, Homo sapiens, UniProt P28482)	96
Myosin light chain kinase (MYLK3, Homo sapiens, UniProt Q32MK0)	100
Mast/stem cell growth factor receptor Kit, autoinhibited (KIT, Homo sapiens, UniProt P10721)	95
Transient receptor potential cation channel subfamily M member 6 (TRPM6, Homo sapiens, UniProt Q9BX84)	98
Ribosomal protein S6 kinase alpha-6, N-terminal kinase domain (RPS6KA6, Homo sapiens, UniProt Q9UK32)	96
Serine/threonine-protein kinase BRSK2 (BRSK2, Homo sapiens, UniProt Q8IWQ3)	100
Protein kinase C epsilon type (PRKCE, Homo sapiens, UniProt Q02156)	100

Study 2
Target: TAR DNA-binding protein 43, full length, His tag (TARDBP, Homo sapiens, UniProt Q13148, residues 1-414)
Method: RNA Bind-n-Seq
Molecule type: RNA
Sample: in vitro
Concentration: 20 nM
Setting: 6-mer, flanks averaged, single round
Added: 150 mM KCl
Baseline: input library
Direction: higher = stronger binding
Strand	6-mer enrichment (R)
AAUUGG	0.896
AUUGAG	0.891
CCGGUA	0.769
UGUGCU	0.847
CAGUUC	0.581
UUUGGU	0.779
AAUUGC	0.631
CUCCGU	0.607

Study 3
Target: ATF1, bZIP domain (human)
Method: DHFR protein complementation
Sample: yeast
Setting: single substitutions, most at no-binding floor
Baseline: wild-type JUN-FOS pair
Direction: higher = stronger binding
Starting sequence: JUN, bZIP domain (human); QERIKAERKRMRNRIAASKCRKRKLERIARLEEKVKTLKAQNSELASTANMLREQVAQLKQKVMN; partner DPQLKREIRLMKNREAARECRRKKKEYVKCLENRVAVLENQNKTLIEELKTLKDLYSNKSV
Change	binding fitness
M51L	-1.4 natural log
Q41K	-1.39 natural log
E33A	-1.5 natural log
E54G	-1.5 natural log
Q41A	-1.33 natural log
A46G	-1.52 natural log
E54P	-1.54 natural log
L45Q	-1.55 natural log

Other studies, line by line
Molecule	tested on	test	test system	setting	scale	measurement	result
CC(=O)/N=c1/sc(S(N)(=O)=O)nn1C	mouse MPNST tumor cells	high-content nuclear imaging, refers to: cell number	–	10 µM, 12 h, mean of 2 replicates	baseline: plate mean, higher = more cells	nuclei count	0.017 z-score
COC(=O)c1c(NCc2ccccc2C(F)(F)F)c2cccc(Cl)c2[nH]c1=O	–	–	human, microsomes or S9	2 µM, 0.5 h	–	remaining compound	69%
CC(NC(=O)C(OC(=O)C(C)NC(=O)OC(C)(C)C)C(C)C)C(=O)OC(C(=O)O)C(C)C (stereo not shown)	mouse MPNST tumor cells	high-content nuclear imaging, refers to: cell number	–	10 µM, 12 h, mean of 2 replicates	baseline: plate mean, higher = more cells	nuclei count	-0.785 z-score
PhoQ, residues 284 288 289 292 302 303 SCCLKL	PhoP, residues 12 14 15 18 19 AGCRL (Escherichia coli, UniProt P23836)	Sort-seq, refers to: YFP reporter	E. coli	PhoQ-PhoP variant library, added: 10 µM Mg2+	baseline: high Mg2+ state, higher = stronger signaling	fold induction	1.54
CNC1(C)C2CCC(C2)C1(C)C (stereo not shown)	mouse MPNST tumor cells	high-content nuclear imaging, refers to: cell number	–	10 µM, 12 h, mean of 2 replicates	baseline: plate mean, higher = more cells	nuclei count	0.538 z-score and 0.473 z-score
Cc1cc(C)cc(OCC2CNC(=O)O2)c1 (stereo not shown)	Plasmodium berghei	inhibitor	Huh-7, liver stage	10 µM, 24 h	baseline: untreated control	infection rate	61.2%

Excerpt of the above (study 1):
target	remaining binding [%]
Serine/threonine-protein kinase MARK1 (MARK1, Homo sapiens, UniProt Q9P0L2)	100
Serine/threonine-protein kinase 17A (STK17A, Homo sapiens, UniProt Q9UEE5)	100
Tyrosine-protein kinase FRK (FRK, Homo sapiens, UniProt P42685)	100
Cyclin-dependent kinase-like 2 (CDKL2, Homo sapiens, UniProt Q92772)	100
Homeodomain-interacting protein kinase 4 (HIPK4, Homo sapiens, UniProt Q8NE63)	100
